Measurements from different studies.
Lines come from different studies, so protocols differ.

O=C1CCC(N2C(=O)c3ccc(O)cc3C2=O)C(=O)N1 (centres unmarked) — half-life (D/H back-exchange, LC-HRMS; 0.1 M phosphate buffer in water; pH 7.4, 37 °C): 55 h
CN(C(=O)OCc1cc(C(=O)O)ccc1OP(=O)(O)O)C(=O)c1ccc(N2C(=S)N(c3ccc(C#N)c(C(F)(F)F)c3)C(=O)C2(C)C)cc1F — half-life (simulated gastric fluid; 10 µM, 2 h incubation, pH 1.2): > 2 h
Cc1ccc(C(C)C)cc1.O=C(N=P12CN3CN(CN(C3)C1)C2)c1[c-]cccc1.[Cl-].[Ru+2] — half-life (DMSO-d6): ~1 weeks
O=Cc1cc(OCc2ccccc2)ccc1B(O)O — half-life (reactivity with N-α-acetyl-lysine, HPLC-MS; pH 10.2): 35.4 h
C=CC(=O)Nc1cccc(Cn2ncc3cnc(Nc4cnn(CCOC)c4)nc32)c1 — half-life (human whole blood; 5 µM): 3.17 h
CC1(C)OCCc2cc(C(=O)N3CCC(c4nc(-c5ccccc5)n[nH]4)CC3)ccc21 — half-life (CD-1 mouse liver microsomes; pH 7.4, together with: NADPH): 0.02 h
Cc1c(Cc2ccc(Cl)c(O[C@@H](C)C(=O)O)c2)c2ccc(C(=O)N[C@@H](C)c3ccc(C(C)(C)C)cc3)cc2n1CC1CC1 — half-life (mouse liver microsomes; 1 µM, together with: microsomes 1 mg/mL): > 1 h
N=C(N)NCCC[C@@H]1NC(=O)[C@H](CO)NC(=O)[C@@H](NC(=O)[C@H](CO)NC(=O)[C@H](CO)NC(=O)[C@H](Cc2c[nH]c3ccccc23)NC(=O)CNC(=O)[C@H](CO)NC(=O)[C@@H](N)Cc2c[nH]c3ccccc23)CSSC[C@@H](C(=O)NCC(=O)O)NC(=O)[C@H](CO)NC1=O — half-life (patients, plasma; intravenous, 10 mg/kg, thrice weekly, median): 0.293 h
O=C(NC1CCC(F)(F)CC1)C(c1cncnc1)N(C(=O)C(F)Cl)c1ccc(-c2cncs2)cc1 (centres unmarked) — half-life (mouse liver microsomes; concentration not given, pH 7.4): 0.595 h
CCn1c(C)c(Cc2cccc(OC(C)(C)C(=O)O)c2)c2ccc(C(=O)N[C@@H](C)c3cccc(C(C)(C)C)c3)cc21 — half-life (human liver microsomes): 0.85 h
C#Cc1cccnc1 — half-life (pH 7.4): 50.7 h
Cc1c(Cc2ccc(OC(C)C(=O)O)cc2)c2ccc(C(=O)NC(C)c3ccc(C(C)(C)C)cc3)cc2n1C (mixture of isomers) — half-life (human liver microsomes; 1 µM, together with: microsomes 1 mg/mL): > 1 h
O=C(N1CCCCC1)C12CC(c3ccccc3)(C1)C2(Cl)Cl — half-life (metabolic stability; human liver microsomes; 2 µM, pH 7.4): 0.433 h
CC(C)Cn1cc(Cc2cccc(OC(C)(C)C(=O)O)c2)c2ccc(C(=O)N[C@@H](C)c3cc(F)cc(C(C)(C)C)c3)cc21 — half-life (human liver microsomes; 1 µM, together with: microsomes 1 mg/mL): 0.95 h
O=S(=O)(Cl)c1cc(C(F)(F)F)cc(C(F)(F)F)c1 — half-life (chemical stability, HPLC-MS; BBS buffer with acetonitrile; pH 10.2): < 0.0167 h
Cc1c(Cc2cccc(OC(C)(C)C(=O)O)c2)c2ccc(C(=O)N[C@@H](C)c3cccc(C(C)(C)C)c3)cc2n1CC(C)C — half-life (mouse liver microsomes; 1 µM, together with: microsomes 1 mg/mL): > 1 h
CCCC/C=C/C(=O)N[C@@H](Cc1cc(F)cc(F)c1)C(=O)N[C@H]1COC(=O)[C@@H]2CCCN2C(=O)[C@H](C)NC(=O)[C@@H]2C[C@@H](C)CCN2C(=O)[C@@H]2CCCN2C1=O — half-life (H-D exchange, 1H NMR, item: alanine amide hydrogen; CD3OD; 25 °C): 1.92 h

Some of these lines once more:
Cc1ccc(C(C)C)cc1.O=C(N=P12CN3CN(CN(C3)C1)C2)c1[c-]cccc1.[Cl-].[Ru+2] — half-life (DMSO-d6): ~1 weeks
Cc1c(Cc2ccc(OC(C)C(=O)O)cc2)c2ccc(C(=O)NC(C)c3ccc(C(C)(C)C)cc3)cc2n1C (mixture of isomers) — half-life (human liver microsomes; 1 µM, together with: microsomes 1 mg/mL): > 1 h
